Literature values, collected from citations in different studies.
Lines come from different studies, so protocols differ.
Chain of UniProt Q8TD08 (whole entry, looked up): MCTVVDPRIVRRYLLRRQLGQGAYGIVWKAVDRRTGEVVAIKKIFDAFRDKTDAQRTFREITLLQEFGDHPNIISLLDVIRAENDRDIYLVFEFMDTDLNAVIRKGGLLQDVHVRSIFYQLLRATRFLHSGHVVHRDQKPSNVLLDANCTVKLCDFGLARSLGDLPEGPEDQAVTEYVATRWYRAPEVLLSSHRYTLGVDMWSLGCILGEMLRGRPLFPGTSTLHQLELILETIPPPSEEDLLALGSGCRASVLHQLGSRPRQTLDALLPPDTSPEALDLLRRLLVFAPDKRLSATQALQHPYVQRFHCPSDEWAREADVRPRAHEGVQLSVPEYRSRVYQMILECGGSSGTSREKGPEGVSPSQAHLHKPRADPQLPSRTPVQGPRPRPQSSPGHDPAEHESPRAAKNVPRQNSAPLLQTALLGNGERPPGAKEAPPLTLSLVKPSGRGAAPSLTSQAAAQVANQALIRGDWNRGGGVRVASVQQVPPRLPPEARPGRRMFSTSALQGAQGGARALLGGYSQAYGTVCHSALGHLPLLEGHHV

Structure (SMILES)	tested on	assay	test system	conditions	scale	endpoint	value
Cc1cnc(N2CC3(CCOCC3)C2)c(C(=O)Nc2ccc(C(=O)N3CCc4cc(C(=O)Nc5c(C)cccc5F)sc4-c4ccccc43)cc2)c1	–	–	human plasma	–	–	plasma protein binding	> 99%
Cc1c(OCC(F)(F)F)ccnc1C[S+]([O-])c1nc2ccccc2[nH]1 (centres unmarked)	–	–	–	–	–	plasma half-life	~1.5 h
CCN1CCN(Cc2ccc(Nc3ncc(F)c(-c4cc(F)c5nc(C)n(C(C)C)c5c4)n3)nc2)CC1	–	–	human plasma	152 to 5066 ng/mL	–	plasma protein binding	96 to 98%
C[C@H](Cn1cnc2c(N)ncnc21)OCP(=O)(O)O	–	–	plasma	–	–	plasma fraction unbound	0.93
CNC(C)C1CCC(N)C(OC2C(N)CC(N)C(OC3OCC(C)(O)C(NC)C3O)C2O)O1 (centres unmarked)	Acinetobacter baumannii	–	clinical isolate RKI-No_30/16	–	–	MIC	> 8 mg/L
CC(C)c1c(C(=O)Nc2ccccc2)c(-c2ccccc2)c(-c2ccc(F)cc2)n1CC[C@@H]1C[C@@H](O)CC(=O)O1	–	–	plasma	acid form back-conversion	–	plasma stability	unstable
CC(C)c1nc(N(C)S(C)(=O)=O)nc(-c2ccc(F)cc2)c1/C=C/[C@@H](O)C[C@@H](O)CC(=O)O	–	–	plasma	–	–	plasma half-life	~19 h
CO[C@H]1/C=C/O[C@@]2(C)Oc3c(C)c(O)c4c(O)c(c(/C=N/N5CCN(C)CC5)c(O)c4c3C2=O)NC(=O)/C(C)=C\C=C\[C@H](C)[C@H](O)[C@@H](C)[C@@H](O)[C@@H](C)[C@H](OC(C)=O)[C@@H]1C	–	–	plasma	–	–	plasma fraction unbound	0.0434
Nc1cc(C(F)(F)F)c(-c2nc(N3CCOCC3)nc(N3CCOCC3)n2)cn1	MAPK15 (Homo sapiens, UniProt Q8TD08)	enzyme activity	–	10 µM	relative to: untreated	remaining activity	100%
CC1(C)S[C@@H]2[C@H](NC(=O)[C@H](N)c3ccccc3)C(=O)N2[C@H]1C(=O)O	Acinetobacter baumannii	–	clinical isolate RKI-No_30/16	–	–	MIC	> 16 mg/L
O=C(NC[C@H]1CN(c2ccc(N3CCOCC3=O)cc2)C(=O)O1)c1ccc(Cl)s1	–	–	plasma	–	–	plasma protein binding	~90%

Repeated from above:
Structure (SMILES)	tested on	assay	test system	conditions	scale	endpoint	value
CC1(C)S[C@@H]2[C@H](NC(=O)[C@H](N)c3ccccc3)C(=O)N2[C@H]1C(=O)O	Acinetobacter baumannii	–	clinical isolate RKI-No_30/16	–	–	MIC	> 16 mg/L
